Results pooled from the literature.
Each line is one published result; not all experiments were run side by side. ± gives the spread as reported.
Cell line: NIH3T3

`Cc1ccc(=O)n(-c2ccc(NC(=O)[C@H](C)N(C)C)cc2)c1` gave an IC50 of 247 ± 3.8 µM (cell proliferation, CCK-8).
With `O=C1Nc2ccc(-c3ccc(-c4ccc(O)cc4)cc3)cc2/C1=C/c1ccc(N2CCNCC2)cc1` the IC50 was 1.44 µM (cell growth or viability, WST-1; 48 h).
For `Cc1c(C)c(C)[c-](C)c1C.[Cl][Ir]1[O]C(=Nc2c(-c3ccccc3)cccc2-c2ccccc2)c2cccc[n+]21`, the IC50 was 60 µM (cell growth or viability, SRB; 24 h).
`C[C@H](C(=O)Nc1ccc(Cn2cc(C(F)(F)F)ccc2=O)cc1)N(C)C` has an IC50 of 441 µM (cell growth or viability, CCK-8).
For `O=C(O)Cc1ccccc1Nc1c(Cl)cccc1Cl.O=C(O)Cc1ccccc1Nc1c(Cl)cccc1Cl.c1cnc2c(c1)ccc1cccnc12.c1cnc2c(c1)ccc1cccnc12`, the IC50 was 54.8 ± 2.36 µM (cell viability, MTT; 48 h).
The IC50 of `O=C1Nc2ccc(-c3ccc(C(=O)N4CCOCC4)cc3)cc2/C1=C/c1ccc(N2CCNCC2)cc1` is reported as 2.65 µM (cell growth or viability, WST-1; 48 h).
`CCC(CC)c1nc(-c2ccc(O)cc2O)cs1` has an IC50 of 3.8 µM (cell growth or viability, resazurin; 72 h).
`CN1CCN(C(=O)c2ccc(-c3ccc4c(c3)/C(=C/c3ccc(N5CCOCC5)cc3)C(=O)N4)cc2)CC1` has an IC50 of 2.75 µM (cell growth or viability, WST-1; 48 h).
`Cc1c(C)c(C)[c-](C)c1C.Cc1cccc(C)c1[N]1C(=O)c2cccc[n+]2[Ir]1[Cl]` gave an IC50 of 45 µM (cell growth or viability, SRB; 24 h).
The IC50 of `O=[N+]([O-])c1ccc(/N=N/c2ccc(O)c(O)c2)cc1` is reported as 2.77 µM (cell growth or viability, resazurin; 72 h).
